Experimental data collected from several papers.
Each line is one published result; not all experiments were run side by side. Numbers after ± are the reported error.

COc1cc(-c2nc3ccccc3s2)cc(CN2CCN(CC(=O)OC(C)(C)C)CCN(Cc3cc(-c4nc5ccccc5s4)cc(OC)c3O)CC2)c1O — logD (fluorescence intensity): 1.22 ± 0.04
O=c1[nH]cccc1[C@H](CO)Nc1nc(N2C[C@@H]3C[C@H]2CO3)c2cc(-c3ccccc3)sc2n1 — logD (chromatographic): 3.5 ± 0.1
O=C(CN1CN(c2ccccc2)C2(CCN(C(=O)c3ccc4[nH]ncc4c3)CC2)C1=O)Nc1ccccn1 — logD (pH 7.4): 2.63
Cc1cccc(-c2ccc3nc(NC(=O)C4CCCCC4)nn3c2)c1 — logD: 3.86
NS(=O)(=O)c1ccc(N/N=C2\C(=O)Nc3ccc(C(=O)NCCc4c[nH]cn4)cc32)cc1 — logD (octanol/buffer; 67 µM, pH 7.4): 1.41
COc1cccc(OC)c1-c1cc(C(=O)NC2(C(=O)O)C3CC4CC(C3)CC2C4)nn1-c1ccc(C(=O)N(C)CCCN(C)C(=O)[C@H](CCCCNC(=O)[C@H](CC(C)C)NC(=O)C2OC2C(=O)O)NC(=O)CN2CCN(CC(=O)[O-])CCN(CC(=O)[O-])CCN(CC(=O)[O-])CC2)cc1C(C)C.[177Lu+3] (mixture of isomers) — logD (n-octanol/buffer; pH 7.4, 177Lu-labelled): -2.05
[Cl-].[Cl-].[Ru+2].c1cc(-c2ccc3cccnc3n2)nc(-c2ccc3cccnc3n2)c1.c1ccc2cc3nc4c5cccnc5c5ncccc5c4nc3cc2c1 — logD (1-octanol/PBS; pH 7.4): 1.22 ± 0.055
CCCCCCCC/C=C/CCCCCCCC(=O)[O][Pt-2]1([OH])([Cl])([NH+]=C(CC)N(C)CCNc2c3ccccc3[nH+]c3ccccc23)[NH2+]CCC[NH2+]1.O=[N+]([O-])[O-].O=[N+]([O-])[O-] — logD (shake-flask; 1-octanol/water; pH 7): 0.78 ± 0.24
[2H]C([2H])([2H])C1(C([2H])([2H])[2H])NC(=O)N(c2ccc(F)c(C(C)(F)F)c2)C1=O — logD (chromatographic HPLC; pH 7.4): 2.5
C[C@@H](O)[C@H](NC(=O)c1ccc(C#CC#Cc2ccccc2)cc1)C(=O)NCC1(C)NC(=O)NC1=O (stereo partly drawn) — logD (octanol/buffer; pH 7.4): 3.96
CCC(=[NH+][Pt-2]1([OH])([OH])([Cl])[NH2+]CCC[NH2+]1)N(C)CCNc1c2ccccc2[nH+]c2ccccc12.O=[N+]([O-])[O-].O=[N+]([O-])[O-] — logD (shake-flask; 1-octanol/water; pH 7): -1.26 ± 0.06
CC[C@H](C)[C@H](NC(=O)C[C@H](NC(=O)CN1CCN2CCN(CC1)CC(=O)[O][Al]([18F])[O]C(=O)C2)C(=O)O)C(=O)N[C@H]1CCc2cccc3c2N(C1=O)[C@H](C(=O)NCc1cn[nH]n1)C3 — logD (1-octanol/PBS 0.1 M; pH 7.4): -1.58 ± 0.16
COC/C=C/c1cc(C2CC2c2ccc3c(c2)C(C(C)C)N(C)CC3)cc2ccc(C(=N)N)cc12.O=C(O)C(F)(F)F.O=C(O)C(F)(F)F (stereo not drawn) — logD (octanol/buffer; 67 µM, pH 7.4): 0.17
CCC(=[NH+][Pt-2]1([Cl])([O]C(=O)CC(C)C)([O]C(=O)CC(C)C)[NH2+]CCC[NH2+]1)N(C)CCNc1c2ccccc2[nH+]c2ccccc12.O=[N+]([O-])[O-].O=[N+]([O-])[O-] — logD (shake-flask; 1-octanol/0.9% NaCl; pH 5): 0.27 ± 0.02
O=C(CN1CN(c2ccccc2)C2(CCN(C(=O)c3cc4cn[nH]c4cn3)CC2)C1=O)NCC(F)(F)F — logD (pH 7.4): 2
COc1cc(-c2nc3ccccc3s2)cc(CN2CCN(C)CCN(Cc3cc(-c4nc5ccccc5s4)cc(OC)c3O)CC2)c1O — logD (fluorescence intensity): 1.19 ± 0.05
CN(CCC#N)c1nc(NCC[C@H]2CCCN2C)nc2sc(-c3ccccc3)cc12 — logD (chromatographic): 3.2 ± 0.2
COc1cc(-c2nc3ccccc3s2)cc(CN2CCN(CC(=O)O)CCN(Cc3cc(-c4nc5ccccc5s4)cc(OC)c3O)CC2)c1O — logD (fluorescence intensity): 0.89 ± 0.07
CCOC(=O)C(CC)(CCCSCCOCCOCCOCCN)NC(=O)c1ccc(C2CC2)c(Cc2ccc(F)cc2)n1 (stereo not drawn) — logD: 2.7
CCC(=[NH+][Pt-2]1([Cl])([O]C(C)=O)([O]C(C)=O)[NH2+]CCC[NH2+]1)N(C)CCNc1c2ccccc2[nH+]c2ccccc12.O=[N+]([O-])[O-].O=[N+]([O-])[O-] — logD (shake-flask; 1-octanol/water; pH 7): -1.36 ± 0.17
COc1cccc(OC)c1-c1cc(C(=O)NC2(C(=O)O)C3CC4CC(C3)CC2C4)nn1-c1ccc(C(=O)N(C)CCCN(C)CCCN(C)C(=O)[C@H](CCCCNC(=O)[C@H](CC(C)C)NC(=O)C2OC2C(=O)O)NC(=O)CN2CCN(CC(=O)[O-])CCN(CC(=O)[O-])CCN(CC(=O)[O-])CC2)cc1C(C)C.[177Lu+3] (mixture of isomers) — logD (n-octanol/buffer; pH 7.4, 177Lu-labelled): -1.92
CN(CC(F)(F)F)C(=O)CN1CN(c2ccccc2)C2(CCN(C(=O)c3ccc4[nH]ncc4c3)CC2)C1=O — logD (pH 7.4): 2.66
CN1CCc2ccc(C3CC3c3ccc4cc(C(=N)N)ccc4c3)cc2C1C1CCC1.Cl.Cl (stereo not drawn) — logD (octanol/buffer; 67 µM, pH 7.4): 0.81
COc1cccc(OC)c1-c1cc(C(=O)NC2(C(=O)O)C3CC4CC(C3)CC2C4)nn1-c1ccc(C(=O)NCCNC(=O)[C@H](CCCCNC(=O)[C@H](CC(C)C)NC(=O)C2OC2C(=O)O)NC(=O)CN2CCN(CC(=O)[O-])CCN(CC(=O)[O-])CCN(CC(=O)[O-])CC2)cc1C(C)C.[177Lu+3] (mixture of isomers) — logD (n-octanol/buffer; pH 7.4, 177Lu-labelled): -1.03
N=C(N)c1ccc2cc(C(=O)Nc3ccc4c(c3)C(c3ccccc3)=NCC4)ccc2c1.O=C(O)C(F)(F)F.O=C(O)C(F)(F)F — logD (octanol/buffer; 67 µM, pH 7.4): 1.1
CC(C)(C)c1cc(-c2ccc3cccnc3n2)nc(-c2ccc3cccnc3n2)c1.COc1ccncc1.[Cl-].[Cl-].[Ru+2].c1ccc2cc3nc4c5cccnc5c5ncccc5c4nc3cc2c1 — logD (1-octanol/PBS; pH 7.4): -0.32 ± 0.017
CCC(=[NH+][Pt-2]1([Cl])[NH2+]CCC[NH2+]1)N(C)CCNc1c2ccccc2[nH+]c2ccccc12.O=[N+]([O-])[O-].O=[N+]([O-])[O-] (stereo not drawn) — logD (shake-flask; 1-octanol/0.9% NaCl; pH 5): -1.39 ± 0.06
COc1cc(NC(=O)c2ccc3cc(C(=N)N)ccc3c2)cc(OC(C)C)c1.O=C(O)C(F)(F)F — logD (octanol/buffer; 67 µM, pH 7.4): 1.84
COc1ccc(CCC(C)N2CCc3cc(O[11CH3])c(OC)cc3C2)cc1 (racemic) — logD (shake-flask; n-octanol/phosphate buffer; pH 7.4): 1.68 ± 0.02
CC(C)Oc1ccc2cc(C(=N)N)ccc2c1.CS(=O)(=O)O — logD (octanol/buffer; 67 µM, pH 7.4): -0.07
Cc1cc(C(=O)N[C@@H](CC(=O)NC(C)(C)C)C(=O)NCCNC(=O)c2cc(-c3ccccc3)ccn2)no1 — logD (pH 7.4): 2.68
COC(=O)Nc1cc(C(=O)Nc2ccc(CN)cc2)cc2ccc(C(=N)N)cc12.O=C(O)C(F)(F)F.O=C(O)C(F)(F)F — logD (octanol/buffer; 67 µM, pH 7.4): < -1.5
CCOC(=O)C(CC)(CCCSCCOCCOCCN)NC(=O)c1ccc(C2CC2)c(Cc2ccc(F)cc2)n1 (racemic) — logD: 2.6

For quick reference, copied from above:
COC(=O)Nc1cc(C(=O)Nc2ccc(CN)cc2)cc2ccc(C(=N)N)cc12.O=C(O)C(F)(F)F.O=C(O)C(F)(F)F — logD (octanol/buffer; 67 µM, pH 7.4): < -1.5
CCOC(=O)C(CC)(CCCSCCOCCOCCN)NC(=O)c1ccc(C2CC2)c(Cc2ccc(F)cc2)n1 (racemic) — logD: 2.6
